# Assay results gathered from unrelated publications.
# Each line is one published result; not all experiments were run side by side. Numbers after ± are the reported error.
Compound,organism,assay,test system,setting,scale,quantity,value
CO[C@H]1/C=C/O[C@@]2(C)Oc3c(C)c(O)c4c(c3C2=O)C2=NC3(CCN(CC(C)C)CC3)NC2=C(NC(=O)/C(C)=C\C=C\[C@H](C)[C@H](O)[C@@H](C)[C@@H](O)[C@@H](C)[C@H](OC(=O)c2ccc(C)cc2)[C@@H]1C)C4=O,Mycobacteroides abscessus,,ATCC 19977,,baseline: wild type over arr deletion,MIC ratio,1.8
CC[C@H](C)[C@H](NC(=O)[C@H](CCCNC(=N)N)NC(=O)[C@@H]1CCCN1C(=O)[C@@H](NC(=O)[C@H](CO)NC(=O)[C@H](CCCCN)NC(=O)[C@H](CO)NC(=O)[C@H](CC(C)C)NC(=O)[C@H](CCCCN)NC(=O)[C@H](CC(C)C)NC(=O)[C@H](Cc1ccccc1)NC(=O)[C@H](Cc1ccccc1)NC(=O)CNC(=O)[C@@H]1CCCN1C(=O)[C@@H](NC(=O)[C@H](CCC(=O)O)NC(=O)[C@@H](N)CC(=O)O)[C@@H](C)O)C(C)C)C(N)=O,Aedes aegypti,agonist,pharate pupae,"intra-abdominal injection, 10 fmol, 9-12 h before ecdysis",,latency to ecdysis contractions,8 to 9 min
COc1ccc(Br)cc1/C=N/NC(=O)Cn1ccc(=O)c2ccccc21,Sclerotinia sclerotiorum,microbial growth,,50 µg/mL,,inhibition,12.2%
NNC(=O)/C=C/c1ccc(N)cc1,Aedes aegypti,larvicidal activity,third instar larvae,48 h,,LC90,259 ppm
CS(=O)(=O)c1ccc(/C=N/NC(=O)Cn2ccc(=O)c3ccccc32)cc1,Sclerotinia sclerotiorum,microbial growth,,50 µg/mL,,inhibition,7.3%
O=[N+]([O-])c1ccc(/C=N/N=C/c2ccc(O)cc2)s1,Trypanosoma congolense,,"IL3000, mouse","oral, 100 mg/kg daily for 7 days, from day 4 post-infection",,day of death,9 days post-infection
N#C[C@@]1(c2ccc3c(N)ncnn23)O[C@H](CO)[C@@H](O)[C@H]1O,human respiratory syncytial virus,viral replication,"HEp-2, A2",,,EC90,2840 nM
C[C@@H]1C[C@H](Nc2ccccc2)c2cc(F)ccc2N1C(=O)c1ccccc1,Aedes albopictus,,,"1 µM, 72 h, second-instar larvae",baseline: Abbott-corrected control,mortality,56 ± 31%
O=[N+]([O-])c1ccc(/C=N/N=C/c2ccc(Br)cc2)o1,Trypanosoma congolense,,"IL3000, mouse","oral, 100 mg/kg daily for 7 days, from day 4 post-infection",,day of death,10 days post-infection
CC[C@H](C)[C@H](NC(=O)[C@@H](NC(=O)CN)C(C)C)C(=O)N[C@@H](Cc1ccccc1)C(=O)N[C@@H](CC(N)=O)C(=O)N[C@@H](C)C(=O)N[C@@H](CC(C)C)C(=O)N[C@@H](CCCCN)C(=O)NCC(=O)N[C@H](C(=O)N[C@@H](C)C(=O)N[C@@H](CCCCN)C(=O)N[C@H](C(=O)N[C@H](C(=O)N[C@@H](C)C(=O)N[C@@H](C)C(=O)N[C@@H](CCC(N)=O)C(=O)N[C@@H](CC(C)C)C(=O)N[C@@H](CC(C)C)C(=O)N[C@@H](CCCCN)C(=O)N[C@@H](CCCCN)C(=O)N[C@@H](C)C(=O)N[C@@H](CCCNC(=N)N)C(=O)N[C@H]1CSSC[C@@H](C(=O)O)NC(=O)[C@H](CO)NC(=O)[C@H](CCCCN)NC(=O)[C@H](CC(=O)O)NC(=O)[C@H](CC(C)C)NC(=O)[C@H](CCCCN)NC1=O)C(C)C)[C@@H](C)O)C(C)C,Staphylococcus aureus,,MRSA NCTC 12493,together with: horse serum 10%,,MIC,2 µM
CC(=O)CCC1C(=O)NC(C(C)C)C(=O)NC(Cc2cc(O)cc(F)c2)C(=O)N2CCCC(N2)C(=O)OC(C(C)=CC=CC(=O)N2CCCCO2)CC=CC=CC(O)C(C)C1O (stereo not shown),hepatitis B virus,,HBV DNA transfected cells,"2 µM, day 3",baseline: untreated,HBsAg level,8.8%
COc1ccccc1-c1n[nH]c2nc(N[C@H]3CC[C@H](NS(=O)(=O)CC(C)C)CC3)ncc12,Leishmania donovani,,"LdBOB CRK12 + CYC9 overexpressing, promastigotes",,,EC50,1.43 ± 0.01 nM
COc1ccc2c(c1)c1c3n2C(=O)CCC3N(Cc2ccccc2)CC1 (stereo not shown),canine distemper virus,viral replication,Vero,"10 µM, 24 h",,inhibition,> 90%
CCCCCCCCCC(=O)OCC1OC(n2cc(C)c(=O)[nH]c2=O)CC1N(C)C (stereo not shown),herpes simplex virus 2,viral replication,"HEL, G",,,EC50,> 230 nM
O=C1/C(=N\NC(=S)NN=Cc2cccs2)c2ccccc2N1Cc1ccccc1,Coxsackievirus B4,viral replication,Vero,,,EC50,> 20000 nM
COC(=O)C1=CO[C@@H](C)[C@@H]2Cn3ccc4c5ccccc5nc-4c3C[C@H]12,Plasmodium falciparum,"parasite growth, [3H]-hypoxanthine incorporation",C2B atovaquone-resistant,48 h,baseline: 3D7 over C2B,IC50 fold decrease,27 fold
Nc1ccn(C[C@@H](CO)OCP(=O)(O)OCCCS(=O)(=O)CCCCCCCCCCCCCC2CCC2)c(=O)n1,human betaherpesvirus 5,cytopathic effect,AD169,,baseline: CC50 over EC50,selectivity index,> 19
C[C@@H]1C[C@H](Nc2ccccc2)c2cc(F)ccc2N1C(=O)c1ccc(Cl)c(Cl)c1,Aedes albopictus,,second-instar larvae,72 h,,LC50,525 nM
CCn1c2ccccc2c2cc(/C=N/NC(=O)Cn3ccc(=O)c4ccccc43)ccc21,Tobacco mosaic virus,"viral infectivity, in vivo plant",,100 µg/mL,,inactivation activity,0%
Nc1ccn(C[C@@H](CO)OCP(=O)(O)OCCCS(=O)(=O)CCCCCCCCCCCCC2CCC2)c(=O)n1,human betaherpesvirus 5,cytopathic effect,AD169,,baseline: CC50 over EC50,selectivity index,> 19
CC[C@H](C)[C@H](N)C1=N[C@H](C(=O)N[C@@H](CC(C)C)C(=O)N[C@H](CCC(=O)O)C(=O)N[C@H](C(=O)N[C@H]2CCCCNC(=O)[C@H](CC(N)=O)NC(=O)[C@@H](CC(=O)O)NC(=O)[C@H](Cc3c[nH]cn3)NC(=O)[C@@H](Cc3ccccc3)NC(=O)[C@H]([C@@H](C)CC)NC(=O)[C@@H](CCCN)NC2=O)[C@@H](C)CC)CS1,Enterococcus faecium,,vanA clinical isolates,together with: ZnSO4 0.3 mM,,MIC90,64 µg/mL
C[C@@](O)(C(F)F)[C@H](NC(=O)c1ccc(C#CC#CC2CC2)cc1)C(=O)NO,Enterobacteriaceae,,"ESBL, carbapenemase negative",,,MIC90,0.125 µg/mL
O=C(Nc1ccccc1Nc1ccccc1)c1cccnc1Cl,Valsa mali,"mycelial growth, mycelial growth rate method",,50 mg/L,,inhibition,3.41%
CC[C@H](C)[C@H](NC(=O)[C@H](CO)NC(=O)[C@H](CO)NC(=O)[C@H](Cc1ccccc1)NC(=O)CN)C(=O)N[C@@H](Cc1ccccc1)C(=O)N[C@@H](CCCNC(=N)N)C(=O)NCC(=O)N[C@H](C(=O)N[C@@H](C)C(=O)N[C@@H](CCCCN)C(N)=O)C(C)C,Escherichia coli,,ATCC 8739,together with: 1 mM MgCl2,,MBC,> 128 µM
CC[C@H](C)[C@H](NC(=O)[C@H](CCCCN)NC(=O)[C@H](CCCCN)NC(=O)[C@H](CC(C)C)NC(=O)[C@H](CCCCN)NC(=O)[C@H](CCC(=O)O)NC(=O)[C@H](CCCCN)NC(=O)[C@@H](NC(=O)[C@H](CCCCN)NC(=O)[C@H](CC(N)=O)NC(=O)[C@H](CCCNC(=N)N)NC(=O)[C@H](Cc1ccccc1)NC(=O)[C@H](CCCCN)NC(=O)[C@H](CCCNC(=N)N)NC(=O)[C@H](CC(C)C)NC(=O)[C@H](CCCNC(=N)N)NC(=O)[C@H](CCCCN)NC(=O)[C@H](CCCNC(=N)N)NC(=O)[C@H](CC(C)C)NC(=O)[C@@H](N)CCCNC(=N)N)[C@@H](C)CC)C(=O)NCC(=O)N[C@@H](CCC(N)=O)C(=O)N[C@@H](CCCCN)C(=O)N[C@H](C(=O)N[C@@H](CCC(N)=O)C(=O)NCC(=O)N[C@@H](Cc1ccccc1)C(=O)N[C@H](C(=O)N1CCC[C@H]1C(=O)N[C@@H](CCCCN)C(=O)N[C@@H](CC(C)C)C(=O)N[C@@H](CCC(N)=O)C(=O)N1CCC[C@H]1C(=O)N[C@@H](CO)C(=O)N[C@@H](CCCCN)C(=O)N[C@@H](CCC(N)=O)C(=O)N[C@@H](CO)C(=O)O)C(C)C)[C@@H](C)CC,Streptococcus mutans,inhibition zone,ATCC 1.2499,"LB agar, overnight",,lethal concentration,4.97 µM
C[C@@H]1C[C@H](Nc2ccccc2)c2cc(F)ccc2N1C(=O)c1ccc(F)cc1,Aedes albopictus,,,"1 µM, 72 h, second-instar larvae",baseline: Abbott-corrected control,mortality,27 ± 11%
OC[C@H]1O[C@@H](O[C@H]2[C@H](O)[C@@H](O)[C@H](SCc3ccc(CS[C@@H]4O[C@H](CO)[C@@H](O[C@@H]5O[C@H](CO)[C@H](O)[C@H](O)[C@H]5O)[C@H](O)[C@H]4O)c4ccccc34)O[C@@H]2CO)[C@H](O)[C@@H](O)[C@H]1O,Trypanosoma brucei,"parasite growth, flow cytometry",,"5 µM, 24 h",,viability,91.1%
Nc1ncnc2c1c(Br)cn2[C@H]1C[C@H](O)[C@@H](CO)O1,Trypanosoma congolense,"parasite growth, resazurin",6C3 diminazene-resistant,48 h plus 24 h resazurin,,EC50,310 ± 70 nM

# Excerpt of the above:
Compound,organism,assay,test system,setting,scale,quantity,value
C[C@@H]1C[C@H](Nc2ccccc2)c2cc(F)ccc2N1C(=O)c1ccc(Cl)c(Cl)c1,Aedes albopictus,,second-instar larvae,72 h,,LC50,525 nM
CCn1c2ccccc2c2cc(/C=N/NC(=O)Cn3ccc(=O)c4ccccc43)ccc21,Tobacco mosaic virus,"viral infectivity, in vivo plant",,100 µg/mL,,inactivation activity,0%
Nc1ccn(C[C@@H](CO)OCP(=O)(O)OCCCS(=O)(=O)CCCCCCCCCCCCC2CCC2)c(=O)n1,human betaherpesvirus 5,cytopathic effect,AD169,,baseline: CC50 over EC50,selectivity index,> 19
CC[C@H](C)[C@H](N)C1=N[C@H](C(=O)N[C@@H](CC(C)C)C(=O)N[C@H](CCC(=O)O)C(=O)N[C@H](C(=O)N[C@H]2CCCCNC(=O)[C@H](CC(N)=O)NC(=O)[C@@H](CC(=O)O)NC(=O)[C@H](Cc3c[nH]cn3)NC(=O)[C@@H](Cc3ccccc3)NC(=O)[C@H]([C@@H](C)CC)NC(=O)[C@@H](CCCN)NC2=O)[C@@H](C)CC)CS1,Enterococcus faecium,,vanA clinical isolates,together with: ZnSO4 0.3 mM,,MIC90,64 µg/mL
C[C@@](O)(C(F)F)[C@H](NC(=O)c1ccc(C#CC#CC2CC2)cc1)C(=O)NO,Enterobacteriaceae,,"ESBL, carbapenemase negative",,,MIC90,0.125 µg/mL
